Published values collected from several papers.
A part holds a random share of what one study measured.

Sample 1
Target: Histone acetyltransferase KAT6A, winged helix 2, GST fusion (KAT6A, Homo sapiens, UniProt Q92794, residues 85-181)
Technique: protein binding microarray
Form: double-stranded DNA, one strand shown
Sample: in vitro
Concentration: not given
Setting: 8-mer, flanks averaged, mean of 2 arrays, mostly near background
Reference: not given
Reading: higher = stronger binding
Construct (chain): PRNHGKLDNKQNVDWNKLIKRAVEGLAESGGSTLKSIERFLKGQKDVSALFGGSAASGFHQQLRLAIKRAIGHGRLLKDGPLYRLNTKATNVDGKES
Strand | E-score
AAATTAGA | 0.0422
CACATAGG | -0.176
ATTCGAAA | 0.0123
AATCGTAA | -0.124
TAGAGAGA | -0.0053
ACGAAAAT | 0.0131
TCTTAACA | 0.0176
ACTATTCT | -0.0257
CGAAACAA | 0.0515
GAGTGGGA | 0.00974
ACACCCAT | -0.0348
GAGGCAAA | 0.0946
CATTCCGC | -0.0422
GATACTGC | -0.00941
GCATAGGA | -0.037
CCTTGCTA | 0.134
ACACTGGA | -0.0408
CCCCAATA | -0.194
GCTCGCCA | 0.0613
AGCACGCA | 0.0796
CAGGTCGA | 0.153
CGGGTGAC | 0.0826
AATACCGT | -0.0923
AATTCACC | 0.0835
ATTACGCC | -0.0653

Sample 2
Target: RNA binding protein fox-1 homolog 2, RRM domain, GST-SBP tag (RBFOX2, Homo sapiens, UniProt O43251-10, residues 100-194)
Technique: RNA Bind-n-Seq
Form: RNA
Sample: in vitro
Concentration: 365 nM
Setting: natural RNA segment, single round, ends assumed
Reference: no-protein control
Reading: higher = stronger binding
Constant ends, left off below: GGGAGUUCUACAGUCCGACGAUC … UGGAAUUCUCGGGUGCCAA
Target sequence (chain): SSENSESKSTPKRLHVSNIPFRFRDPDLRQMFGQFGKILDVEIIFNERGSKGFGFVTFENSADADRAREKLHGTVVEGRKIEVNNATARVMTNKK
Strand | RBNS enrichment (R)
CCCACCUUGAACAUCAUGAGCUGUUGUUAUUAGUCUUGGAAGCAGAGUCUGGGUUGGUGUGGAUAGCAAAGGAGGAAGUCUGAGCCCCUCAUUGGUCUUCCUCCCACCUG | 2.02
GAAGCCUAAGCCUCUGCCUUCAAGCUGGAUCCUGUGCAGGGUGGGCAGGCAAGAACUCAGACAUGCCCAGCCUAGCCCAGGGCGGCCUGCAUCUGGCCCCAGAAGCCUCC | 0.645
UCAGAGGGAGUGUGGAGGGAGGGACCCGGCCUCUCUGUUGUCAAAUUGAGGCCUCCAUGUGGGAAGUGUGAUUUCUGCUUUUGUGUCCCAUCCCCACCCCACCCCAUUAC | 0.504
CUGCUUGUGGGAGUGGGAAAUGGGUAUUUUAGACCCAACACAGGUUCUAAAUUUAAAACAAAUAAUAAUUGGAACAAAUAAAGGUUCUUGUACCCAGAGUGAUUCUACAU | 0.432
GCGUCCGUCCUCGAGCCAGGCGGGAGGAGGGAGUGGAGAGACUGACUGGCCGUGAUGGGAAUGACAGUGAGAAGGUCCGCCUGUGCGCGUGGAACACUGUGGACGCUCGA | 0.58
AAUGUGGGUUGUAAAUGUUCCCCUAACUUCUGUUUCUUCUGAAGAGAAAAUAAACCUUUUUCCCCCCAAAGUAAGGUGUGGUAUGGGUCUUUUCUUAUCGCCUUCCUCUC | 0.476
AGUUUACUGAACACCAAGGAAGAAGUGAGACCUCAGUGACUGUUCUCGUGCCAAGAAGCCCUGGGCCAGGGCCAGGUGUUUCCAGAGCCAAGUGCCCAUGUGUGUAUGGG | 0.492
UUAUAGCUUCUUCUUAAAAAAAAGUGUUGAAGAAAUUUUUUGGUUAUUCAUACAAAAAAAUGAGUUGAUGAUGGAAAAGCAAGUCAUAAUCAUCUAAUUGUUUUUGUCUA | 0.781
UGGCAUUUUUAAAAAAGUGCAAUCAAUAAAGCAGAGUUCUGUCAAGAAUGAGUAAGUUAACAGCCAGAGACAGACACUGUGCAGGCAUUGCAAAUAGAUGGAAUUACAGC | 0.691
CAGGAACUGCAACGGACUCACACUGUGCACGCUGGAUAGCGAAUAGCAGUAAGUAGCACACCCAUCACUUAGACAAAUACCCAAGGGAGUUCUGCUCACCGAUAUUUGCC | 0.251
CAGUCAGCAGCCAAAGACCUAACUCAGUCACCUGAAAUGUCACCAACAACAAUCCAGGUCACAUACCUGCCUUCCAGUCAGAAGAGCAAACGCCCUAAGCACUUCCUGGA | 0.204
AAGACAGCCUUCCACUAGAGGCUGAAGCCAGGAAGCAGACAGUUGCUGUCCUUAUUCCUGUUAAAAGCCUCUGGCACUAUGAACAACGCAGUGUGGGGACAGUGGGUGAC | 0.338

Sample 3
Target: Ras GTPase-activating protein-binding protein 1, full length (G3BP1, Homo sapiens, UniProt Q13283)
Chain of UniProt Q13283 (whole entry, looked up): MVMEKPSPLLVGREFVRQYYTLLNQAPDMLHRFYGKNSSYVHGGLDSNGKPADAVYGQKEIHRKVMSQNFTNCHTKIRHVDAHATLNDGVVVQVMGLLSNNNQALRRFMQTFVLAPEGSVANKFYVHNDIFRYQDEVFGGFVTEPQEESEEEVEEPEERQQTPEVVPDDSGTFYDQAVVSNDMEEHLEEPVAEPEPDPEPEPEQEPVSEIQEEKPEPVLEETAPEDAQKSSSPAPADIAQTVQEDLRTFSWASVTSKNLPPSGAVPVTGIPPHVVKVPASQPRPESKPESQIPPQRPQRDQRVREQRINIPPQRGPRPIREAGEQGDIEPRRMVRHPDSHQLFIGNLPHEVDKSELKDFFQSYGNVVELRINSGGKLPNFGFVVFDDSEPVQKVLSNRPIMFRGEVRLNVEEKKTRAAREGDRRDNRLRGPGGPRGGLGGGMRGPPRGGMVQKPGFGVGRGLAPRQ
Technique: RNA Bind-n-Seq
Form: RNA
Sample: in vitro
Concentration: 200 nM
Setting: whole 134-nt RNA, ends assumed
Together with: 150 mM LiCl
Reference: input library
Reading: higher = stronger binding
All molecules: 7-deaza-guanosine replaces G
Constant ends, left off below: GGGAGUUCUACAGUCCGACGAUC … UGGAAUUCUCGGGUGUCAAGG
Strand | log2 enrichment
AAGUCCUGUGCUACACAUCGUAUGUACCGAAUCGGGGAAAAGGGAAAAGGAAAAGGGAAAGUAUUAUGUUACGCCGUUCGGAUCUGCACU | 0.133
UAACUUUAGAGGAGGAUCUGAUUGAUAUGGCAGUGGACGUGGAUUUGGGGAUGGCUAUAAUGGGUAUGGAGGAGGACCUGGAGGUGGCAA | -0.185
UUGUUUUUUUUUUGUUCUUUUUUUCCAUGUCACUAAAGGCCCUCGGGACCAAGGAUCACGUCAUGACUCCGGUGAGUUCACACGUGGUGG | 1.6
UCAAGUCCUGUGCUACACAUCGUAUGUACCGAAUCGGGGAAGGGAAGGGGAAGGGAAAGUAUUAUGUUACGCCGUUCGGAUCUGCACUUC | -0.091
ACCAUGCAGGUGGGCAUCUUUGGGAAGUGGGGCAAGGGGGGGAUGGGGAGGGGGGUAACACUUUGGGAACAGGUGGUCCCAGGUCGUUUC | 0.0543
AUAUGAGUAAAAUCUGUCCCUUUUUCCCCCUUUGAAUGAGGUCUUCCAUGUUUGAGGGAAAGUCUUGCACUAUUGCAUAUAUUUUGGGGA | 0.707
UCAAGUCCUGUGCUACACAUCGUAUGUACCGAAUCGGGGUUGGGUUGGGGUUGGGAAAGUAUUAUGUUACGCCGUUCGGAUCUGCACUUC | -0.179
UCCUGUGCUACACAUCGUAUGUACCGAAUCGGCCCCCCGGGCCCCCCGGCCCCCCGGGGAAAGUAUUAUGUUACGCCGUUCGGAUCUGCA | -0.337
GUCCUGUGCUACACAUCGUAUGUACCGAAUCAAACCCCCAAACCCAAACCCCCCCAAAAAAGUAUUAUGUUACGCCGUUCGGAUCUGCAC | -0.769
CCUGUGCUACACAUCGUAUGUACCGAAUCGGGAAAAAAAGGAAAAAAAGGGAAAAAAAGGAAAGUAUUAUGUUACGCCGUUCGGAUCUGC | -0.0842
CUGUGCUACACAUCGUAUGUACCGAAUCGGGGUUUGGGGUUUUUUUGGGGAAAAAAAGGGGAAAGUAUUAUGUUACGCCGUUCGGAUCUG | 0.276

Sample 4
Target: Interferon regulatory factor 5, full length, phosphomimetic (IRF5, Homo sapiens, UniProt Q13568-2, residues 1-514, K96S/S451D/S453D/S456D/S462D)
Technique: protein-binding microarray
Form: double-stranded DNA, one strand shown
Sample: in vitro
Concentration: 250 nM
Setting: 60-bp whole probe
Together with: salmon DNA 0.4 mg/ml
Reference: random background probes
Reading: higher = stronger binding
Constant ends, left off below: GCCTAGCAC … GTCTTGATTCGCTTGACGCTGCTG
Strand | log fluorescence [z-score]
TTGGGTATCGGGTATCGGTTAGTGCTA | 6.11
TCATATATATGTGTATAACTGTGCTAG | 0.612
TTATATTTCAGTATCGATTAGTGCTAG | 8.57
TTAGGTTTCCTTACCCTTTAGTGCTAG | 0.763
GACATCCCCAGTCTCATATTGTGCTAG | -0.385
GACGGTTCCGGTTTTGGGACGTGCTAG | 1.17
TGCCTTTTGCTTTACTGATGGTGCTAG | 0.761
GACGATATCAGAGTGGAGACGTGCTAG | 0.232
GACGGTCTCCTTTTCCTGACGTGCTAG | -0.0576
TCACTCTTCTGGATCTCACTGTGCTAG | 0.269
TTAGATCTCAGACTGGACTAGTGCTAG | -0.302
TTAAGTATCGGTATCGGTTAGTGCTAG | 10.5
TTAGGTTTCGGGACTGGGTTCGTGCTA | 5.87
GACGGACTGCTTCACCTGACGTGCTAG | -0.496
GACGGACTGGGGACAGGGGACGTGCTA | -0.524
TTAGGTATCCTTTTCCATTAGTGCTAG | 0.602
GACGATTTCAGCATCGAGACGTGCTAG | 0.568
TTAGGTTTCGGTTTCGGTTGGTGCTAG | 11.6
GACGGTTTCGGACTGGGGGCGTGCTAG | 4.81
TCAATTTTTACTTTCTGACTGTGCTAG | 3.04

Some of these lines once more (sample 1):
Strand | E-score
ATTCGAAA | 0.0123
CCCCAATA | -0.194
CAGGTCGA | 0.153
GAGGCAAA | 0.0946
TAGAGAGA | -0.0053
